Measured values from different studies.
Compare with care: the assays were run in different laboratories.
Matrix: plasma

| SMILES | system | conditions | AUC |
| --- | --- | --- | --- |
| O=S(=O)(N[C@H]1CCC[C@@H](N2c3ccccc3CCc3ccccc32)[C@@H]1O)c1ccc(OC(F)(F)F)cc1 | mouse | intravenous, 1 mg/kg | 0.495 µg·h/mL |
| COC1C=COC2(C)Oc3c(C)c(O)c4c(c3C2=O)C2=NC3(CCN(CC(C)C)CC3)NC2=C(NC(=O)C(C)=CC=CC(C)C(O)C(C)C(O)C(C)C(OC(=O)c2cncnc2)C1C)C4=O (centres unmarked) | female CD-1 mouse | intravenous, 5 mg/kg | 21.2 µg·h/mL |
| COC1C(c2ccc(Cl)c(Cc3ccc(OC4CCOC4)cc3)c2)OC(CO)C(O)C1O (centres unmarked) | CD-1 mouse | intravenous, 5 mg/kg | 12.9 µg·h/mL |
| O=S(=O)(N[C@H]1CCO[C@@H](C2c3ccc(F)cc3CCc3cc(F)ccc32)C1)c1ccc(OC(F)(F)F)cc1 | mouse | oral, 30 mg/kg | 22.4 µg·h/mL |
| O=C1CCC(N2C(=O)c3ccc(N4CCC(C(=O)N5CCC(CCN6CCC(CNC(=O)c7cccc(-c8noc(C(F)(F)F)n8)c7)(c7nc(-c8ccccc8)cs7)CC6)CC5)CC4)cc3C2=O)C(=O)N1 (centres unmarked) | CD-1 mouse | oral, 30 mg/kg | 0.826 µg·h/mL |
| Cc1cc(C(=O)N[C@@H](CC(=O)NC(C)(C)C)C(=O)NCCNC(=O)c2cccc(-n3cccn3)c2)no1 | mouse | oral, 1 mg/kg | 0.0033 µg·h/mL |
| COc1ccccc1NC(=O)OC1C(C)C(OC)C=COC2(C)Oc3c(C)c(O)c4c(c3C2=O)C2=NC3(CCN(CC(C)C)CC3)NC2=C(NC(=O)C(C)=CC=CC(C)C(O)C(C)C(O)C1C)C4=O (centres unmarked) | female CD-1 mouse | intravenous, 5 mg/kg | 22.7 µg·h/mL |
| Cc1cc(C(=O)N[C@@H](CC(=O)NC(C)(C)C)C(=O)NCCNC(=O)c2cc(-c3ccccc3)ccn2)no1 | mouse | intravenous, 0.1 mg/kg | 0.0148 µg·h/mL |
| CN[C@H](CC(C)C)C(=O)N[C@H]1C(=O)N[C@@H](CC(N)=O)C(=O)N[C@H]2C(=O)N[C@H]3C(=O)N[C@H](C(=O)N[C@H](C(=O)N[C@H](CCCNC(=N)N)C(N)=O)c4cc(O)cc(O)c4-c4cc3ccc4O)[C@H](O)c3ccc(c(Cl)c3)Oc3cc2cc(c3O[C@@H]2O[C@H](CO)[C@@H](O)[C@H](O)[C@H]2O[C@H]2C[C@](C)(N)[C@H](O)[C@H](C)O2)Oc2ccc(cc2Cl)[C@H]1O | female CD-1 mouse | intravenous, 1 mg/kg, single dose | 1.8 µg·h/mL |
| COC1C=COC2(C)Oc3c(C)c(O)c4c(c3C2=O)C2=NC3(CCN(CC(C)C)CC3)NC2=C(NC(=O)C(C)=CC=CC(C)C(O)C(C)C(O)C(C)C(OC(=O)Nc2cscn2)C1C)C4=O (centres unmarked) | female CD-1 mouse | intravenous, 5 mg/kg | 33.9 µg·h/mL |
| O=C(Nc1ccc(C(F)F)cc1)[C@H](CC1CCCCC1)Nc1nn2c(=O)ccnc2s1 | female nude mouse | intravenous, 1 mg/kg | 0.554 µg·h/mL |

Excerpt of the above:
| SMILES | system | conditions | AUC |
| --- | --- | --- | --- |
| COC1C=COC2(C)Oc3c(C)c(O)c4c(c3C2=O)C2=NC3(CCN(CC(C)C)CC3)NC2=C(NC(=O)C(C)=CC=CC(C)C(O)C(C)C(O)C(C)C(OC(=O)Nc2cscn2)C1C)C4=O (centres unmarked) | female CD-1 mouse | intravenous, 5 mg/kg | 33.9 µg·h/mL |
